Assay results gathered from unrelated publications.
Parts stem from different laboratories: compare values within a part only. Substitutions count along the parent as printed.

Series 1 — method: RNA Bind-n-Seq; molecule type: RNA; matrix: in vitro; concentration: 365 nM; reference: no-protein control; direction: higher = stronger binding
Target: RNA binding protein fox-1 homolog 2, RRM domain, GST-SBP tag (RBFOX2, Homo sapiens, UniProt O43251-10, residues 100-194)
Setting: natural RNA segment, single round, ends assumed
Construct (chain): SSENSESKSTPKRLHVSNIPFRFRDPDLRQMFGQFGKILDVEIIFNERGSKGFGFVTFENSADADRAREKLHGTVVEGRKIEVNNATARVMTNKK
Oligonucleotide | RBNS enrichment (R)
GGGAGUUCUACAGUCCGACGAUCUGCCUUGGCUUUUCUCCCCUUCUCAUUCUCCUCUCCCCUUUCCUCACUGAAGGCUGUGAGUUGCUUUCAAUGUGACAACACUAUGAUGUCAUUUGGAAGGAUUUGCCAGGUGGAAUUCUCGGGUGCCAA | 0.445
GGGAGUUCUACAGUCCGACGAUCGGGAGAAAGAGAAGGCAACUCCUCCUUACCCCCCACACUGGUAAUCUUUCCAACCAGCAUCCCAGACCUCGGACUCUUGAAGGGAAAAGAGUCUAACUCCCUCCUCCCUAUGGAAUUCUCGGGUGCCAA | 0.33
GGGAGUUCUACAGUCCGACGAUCUGGUGGGAAGCGUCUGUCCGUUUACUCCAAGGUGGGGUCUUUGUGAGAGUGAGCUGUAGGUGUGCGGGACCGGUACAGAAAGGCGUUCUUCGAGGUGGAUCACAGAGGCUUGGAAUUCUCGGGUGCCAA | 1.12
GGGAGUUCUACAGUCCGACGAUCCACCUGGAGCCCGCUUCAAGCUCUCUGUUGCGCUCCCGCAUUUCUCAUGCUUCUUCUCAUGGGGUGGGGUUGGGGCAAAGCCUCCUUUUUAAUACAUUAAGUGGGGUAGAUGGAAUUCUCGGGUGCCAA | 0.418
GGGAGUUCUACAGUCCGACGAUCAACUGAGUGUAGAAAUCUGAAUUUUUAAAAGAGCUGUAACUAGUUGUAAGUGCUUAGGAAGAAACUUUGCAAACAUUUAAUGAGGAUACACUGUUCAUUUUUAAAAUUCCUGGAAUUCUCGGGUGCCAA | 0.364
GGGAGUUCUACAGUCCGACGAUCGACUCCACCCCACCGUGGAAAGGGAGCUUGAAGCAGAAAAGAGGGCGCCUCGGAGCCAAUGUUGAGCCUUGAAGUUCAAAGGAAGAAGUAGCCAAAUCUUUUUCUAAUAAUGGAAUUCUCGGGUGCCAA | 0.575
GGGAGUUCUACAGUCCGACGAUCUGGCCAGCCCCGCCCACUGCCAGGGACGCCGAGGGCCUGACCAGGGGCCCCGAGGCCUGAGGGCCCCUCCCCUGUCCCCACCUCAGUGCCUGCGGGGCCCUGAGCCUCCCUGGAAUUCUCGGGUGCCAA | 0.502
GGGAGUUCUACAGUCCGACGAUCGUCAGGACAUGUCCACCACUGGUCAGAAACUCUUCUUCCCGUGGAACCAAAUGUCCCAGACUCUCUUCAUGCCUCAGCCUUGCAGUGUAGCAUAGGUCUCUCUCUGCACAUGGAAUUCUCGGGUGCCAA | 0.392
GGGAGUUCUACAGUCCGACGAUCACUUUGAAUUCUUACAAGCAAAGGUCAUUGUGUUUUUCUUGAAUAGACAUCUAAUAAAUUUUGCUUGGAAGUAUACUUCAGUUUUUCUUCUUGACAUUUAUCUUUAUAAAUGGAAUUCUCGGGUGCCAA | 0.449
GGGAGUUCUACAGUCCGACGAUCUUCCCACGCAGUUGAGUGUCAUCACCCAAGUCCCUGUCAUCUAGGAAGGAAGUGGAUGCAGGGUGGAACAAAGAACCUCCGGUCACUGUAGCCCCUCUUCUCUGCUCUGCUGGAAUUCUCGGGUGCCAA | 0.424
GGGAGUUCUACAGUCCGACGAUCAGAGAGGCAAGUCAAGGGAAAGAGAACAGUAGACAUGCCUCUCAUCAUUCUCUUGGUGUCUCUUUUUCUUCUUCAGGCCAAUGAGAAGCCGAAAAUUAAACCCCACCUCCUGGAAUUCUCGGGUGCCAA | 0.81
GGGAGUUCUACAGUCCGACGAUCCAGCCAGCUGGUUCUCCCGGGACACCAGCAGAUCCACACCCUGGGCACCUCCGUGUUUGGUCUUUUUUUUCCCCUGUGUGAAAGAAGAAACGGCACGACCCCUUCUCAAGUGGAAUUCUCGGGUGCCAA | 0.308

Series 2 — method: universal PBM; molecule type: double-stranded DNA, one strand shown; matrix: in vitro; concentration: 600 nM; direction: higher = stronger binding
Target: Sal-like protein 4, full length isoform A (SALL4, Homo sapiens, UniProt Q9UJQ4, residues 1-1053)
Chain of UniProt Q9UJQ4 (whole entry, looked up): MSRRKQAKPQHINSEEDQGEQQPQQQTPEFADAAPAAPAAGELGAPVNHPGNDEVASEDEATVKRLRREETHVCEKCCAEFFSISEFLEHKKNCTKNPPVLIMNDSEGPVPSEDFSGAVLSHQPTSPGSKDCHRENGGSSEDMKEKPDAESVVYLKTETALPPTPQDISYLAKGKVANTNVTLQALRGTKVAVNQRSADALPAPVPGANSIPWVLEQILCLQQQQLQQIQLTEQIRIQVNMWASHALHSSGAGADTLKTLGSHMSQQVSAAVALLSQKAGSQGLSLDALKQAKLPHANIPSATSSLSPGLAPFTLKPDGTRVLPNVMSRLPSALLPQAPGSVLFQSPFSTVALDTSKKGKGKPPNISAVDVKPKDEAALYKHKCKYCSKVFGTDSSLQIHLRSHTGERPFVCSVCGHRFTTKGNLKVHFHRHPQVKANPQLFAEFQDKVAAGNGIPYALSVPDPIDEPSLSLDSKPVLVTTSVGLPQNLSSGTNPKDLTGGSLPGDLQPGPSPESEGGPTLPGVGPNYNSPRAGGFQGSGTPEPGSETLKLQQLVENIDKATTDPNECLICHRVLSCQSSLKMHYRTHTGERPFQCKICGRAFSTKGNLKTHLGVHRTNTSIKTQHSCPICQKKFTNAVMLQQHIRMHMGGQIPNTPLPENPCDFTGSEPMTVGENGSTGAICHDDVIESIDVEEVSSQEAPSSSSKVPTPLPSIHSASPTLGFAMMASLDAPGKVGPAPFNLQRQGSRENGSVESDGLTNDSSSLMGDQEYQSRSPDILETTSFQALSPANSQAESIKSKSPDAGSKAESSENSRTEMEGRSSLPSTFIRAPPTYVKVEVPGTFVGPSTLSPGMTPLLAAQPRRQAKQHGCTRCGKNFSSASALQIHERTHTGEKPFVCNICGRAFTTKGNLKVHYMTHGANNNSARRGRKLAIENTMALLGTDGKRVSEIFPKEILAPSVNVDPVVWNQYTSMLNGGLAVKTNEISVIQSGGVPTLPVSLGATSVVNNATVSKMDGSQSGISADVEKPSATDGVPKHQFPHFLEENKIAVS
Setting: 8-mer, flanks averaged, mean of replicates
Oligonucleotide | E-score
ACCAGGGG | -0.234
AGACACCG | -0.245
AGTGCAGA | -0.0521
AAGCCTGC | -0.181
GAAGTCTC | -0.128
GTTGAGCA | -0.106
GGCAAACA | -0.0883
GATGTTCC | -0.156
TACCAGGA | -0.0397
AATAAAAC | 0.29
TCCTGGCA | -0.0636
CTTATTCC | 0.169
CAGCGTCG | -0.243
ATTAGTTA | 0.329
GCACATAA | 0.183
ATTGAGCC | 0.0426
AGTGTCGA | -0.103
GAAAGGGA | -0.08
CATGCACG | 0.0288
CGTTTCTC | -0.225
CCCACATA | 0.133
CACACGTC | -0.00432
AGACCGAT | -0.0979
ACACTACA | 0.193

Series 3 — target: CCNE2, cyclin fold, Cln2 fusion (human); method: yeast growth competition, sequencing; matrix: yeast; setting: strong parent motif; reference: not given; direction: higher = stronger binding
Parent: CDKN1A docking peptide (human); SKACRRLFGPVDS; partner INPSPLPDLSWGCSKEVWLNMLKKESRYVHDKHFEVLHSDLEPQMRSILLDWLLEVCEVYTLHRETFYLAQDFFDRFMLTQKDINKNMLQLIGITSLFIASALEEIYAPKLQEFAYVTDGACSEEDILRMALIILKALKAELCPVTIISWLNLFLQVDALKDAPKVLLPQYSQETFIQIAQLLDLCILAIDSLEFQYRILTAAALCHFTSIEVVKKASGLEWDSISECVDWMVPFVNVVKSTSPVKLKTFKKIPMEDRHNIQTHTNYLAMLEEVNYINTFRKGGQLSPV
Variant | normalised enrichment score
SKACRRLLGPVDS [F8L] | -0.0142
SKAVRRLFGPVDS [C4V] | 3.81
SVACRRLFGPVDS [K2V] | 2.52
SKGCRRLFGPVDS [A3G] | 1.43
SNACRRLFGPVDS [K2N] | 4.28
SPACRRLFGPVDS [K2P] | 3.43
SKACRRLFGSVDS [P10S] | 3.88
SKACRRNFGPVDS [L7N] | 0.351
SKACRRLFYPVDS [G9Y] | 4.15
SKACRRLFGPVES [D12E] | 3.93
SKACHRLFGPVDS [R5H] | 0.49
SKQCRRLFGPVDS [A3Q] | 0.625
SKACRRLFDPVDS [G9D] | 4.5
SKACRRLFGPVKS [D12K] | 2.64
SKAHRRLFGPVDS [C4H] | 0.742
SCACRRLFGPVDS [K2C] | 2.56
SKACRRLMGPVDS [F8M] | 0.359
SKACRRRFGPVDS [L7R] | 0.366

Series 4 — method: protein binding microarray; molecule type: double-stranded DNA, one strand shown; matrix: in vitro; concentration: not given; reference: not given; direction: higher = stronger binding
Target: Histone acetyltransferase KAT6A, winged helix 1, GST fusion (KAT6A, Homo sapiens, UniProt Q92794, residues 1-85)
Setting: 8-mer, flanks averaged, mean of 2 arrays, mostly near background
Target sequence (chain): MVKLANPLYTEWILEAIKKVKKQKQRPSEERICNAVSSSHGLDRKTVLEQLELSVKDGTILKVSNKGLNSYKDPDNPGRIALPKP
Oligonucleotide | E-score
GCGGCGCC | 0.46
TACGCGCA | 0.389
CTGCGGAA | 0.165
TATACTCA | -0.0408
ATACCGCC | 0.36
AGTCACCC | -0.00945
CACGTTGG | -0.265
CAACATCG | 0.133
AAACGGAC | 0.13
ACGTATGC | 0.054
CAACGACG | 0.135
CAACGGTC | -0.0174
GTGTAATA | 0.0213
ACCTCGCA | 0.0164
CTACGTCC | 0.0518
CAAGAAGC | 0.051
TAGCCAAA | -0.124
TAAGATAA | -0.0688
GAATGATC | -0.0942
GAAGCAGC | -0.119
CCAGAGCC | 0.0377
AGCTCGAG | 0.0452
AACCAGGG | -0.214
CGACCACC | 0.0512
AAGATGCA | -0.151

Excerpt of the above (series 3):
Variant | normalised enrichment score
SKACRRLFGSVDS [P10S] | 3.88
SKAVRRLFGPVDS [C4V] | 3.81
SKQCRRLFGPVDS [A3Q] | 0.625
SKACRRLFGPVKS [D12K] | 2.64
SNACRRLFGPVDS [K2N] | 4.28
SKACRRRFGPVDS [L7R] | 0.366
